Results of several laboratories.
Numbered parts are unrelated; each lists some results of a single study.

Study 1 — technique: protein binding microarray; form: double-stranded DNA, one strand shown; sample: in vitro; concentration: not given; relative to: not given; reading: higher = stronger binding
Target: Histone acetyltransferase KAT6A, both winged helices, GST fusion (KAT6A, Homo sapiens, UniProt Q92794, residues 1-181)
Setting: 8-mer, flanks averaged, mean of 2 arrays, mostly near background
Residues (chain): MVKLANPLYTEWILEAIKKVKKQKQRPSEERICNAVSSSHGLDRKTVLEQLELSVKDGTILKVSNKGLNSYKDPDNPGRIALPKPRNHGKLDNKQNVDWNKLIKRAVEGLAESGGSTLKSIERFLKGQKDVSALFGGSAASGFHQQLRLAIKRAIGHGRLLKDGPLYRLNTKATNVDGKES
For `CATGCGAG`, the E-score was 0.0131.
For `CACGTCTC`, the E-score was 0.0736.
The E-score of `AGGCGACA` is reported as 0.04.
The E-score of `AATCACAG` is reported as -0.107.
`AGTTAGTC` gave an E-score of -0.036.
With `GATTTAGC` the E-score was 0.0629.
For `AGTAAGTA`, the E-score was -0.0954.
`ACGTGCAC` gave an E-score of 0.0285.
`ATAGAGTA` has an E-score of -0.0635.
The E-score of `GAAATAGC` is reported as 0.102.
The E-score of `ATTCCTAC` is reported as -0.0703.
`CCTCAGTA` gave an E-score of -0.134.
With `TCATATGA` the E-score was -0.112.
`ACTACGCA` has an E-score of 0.0449.
`CCCACCAG` gave an E-score of -0.232.
With `AACACGTA` the E-score was -0.0104.
`ATGATTAC` gave an E-score of -0.0169.
`AATAAGGT` gave an E-score of -0.0319.
The E-score of `AACCGTAC` is reported as 0.179.
`ACGGGCCC` gave an E-score of 0.276.
For `AAACCGCG`, the E-score was 0.328.
`ACTTTGTA` has an E-score of -0.129.
`CCGATGCA` gave an E-score of 0.0789.
With `AACCGGCA` the E-score was 0.212.
`CTGACGTA` gave an E-score of 0.000535.

Study 2 — technique: protein-binding microarray; form: double-stranded DNA, one strand shown; sample: in vitro; concentration: 2540 nM top; setting: 60-bp whole probe; added: salmon DNA 0.4 mg/ml; relative to: random background probes; reading: higher = stronger binding; shared flanks, not repeated: GCCTAGCAC … GTCTTGATTCGCTTGACGCTGCTG
Target: Interferon regulatory factor 3, full length, phosphomimetic (IRF3, Homo sapiens, UniProt Q14653, residues 1-427, S386D/S396D/S398D/S402D/T404D/S405D)
Chain of UniProt Q14653 (whole entry, unmodified, looked up): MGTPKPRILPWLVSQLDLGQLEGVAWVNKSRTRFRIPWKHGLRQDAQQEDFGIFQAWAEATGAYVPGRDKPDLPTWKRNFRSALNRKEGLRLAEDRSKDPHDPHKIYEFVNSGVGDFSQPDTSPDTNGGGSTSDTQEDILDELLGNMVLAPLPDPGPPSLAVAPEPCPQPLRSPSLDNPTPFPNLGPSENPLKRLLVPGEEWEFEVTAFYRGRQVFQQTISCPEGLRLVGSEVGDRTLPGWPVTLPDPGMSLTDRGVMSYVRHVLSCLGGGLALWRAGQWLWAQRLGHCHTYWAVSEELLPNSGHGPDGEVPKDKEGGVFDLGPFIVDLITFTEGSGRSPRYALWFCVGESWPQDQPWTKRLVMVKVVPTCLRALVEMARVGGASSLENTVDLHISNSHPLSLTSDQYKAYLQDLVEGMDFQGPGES
`TTCCATTTCTGTTTTTGCTTGTGCTAG`: “fitted relative affinity” 4.84 z-score.
For `GACGGACTGGACTATTGGGACGTGCTA`, “fitted relative affinity” read -0.587 z-score.
Under “fitted relative affinity”, `TCAAGTTTACCCATCTCACTGTGCTAG` is recorded as 1.28 z-score.
For `GACGGTTTCCTTCTCGTGACGTGCTAG`, “fitted relative affinity” read 10.4 z-score.
Under “fitted relative affinity”, `GACGGTATCGACTGTCGGGACGTGCTA` is recorded as 0.17 z-score.
Under “fitted relative affinity”, `TTAGCTTTCCTTCTCCTTTAGTGCTAG` is recorded as 7.49 z-score.
`TTAGGTCTCGGACTGGTTTAGTGCTAG` — result for “fitted relative affinity”: -0.219 z-score.
Under “fitted relative affinity”, `AGCTCCCTTTCTCTCTGTGAGTGCTAG` is recorded as 3.74 z-score.
Under “fitted relative affinity”, `TCATTCCTCTTTCTCTGACTGTGCTAG` is recorded as 3.09 z-score.
For `TTAGAACTGAGTATCGACTAGTGCTAG`, “fitted relative affinity” read -0.289 z-score.
For `TTAGATTTCAGTACCGATTAGTGCTAG`, “fitted relative affinity” read 1.81 z-score.
`TTAGGTCTCGGTTTCGCTTAGTGCTAG` — result for “fitted relative affinity”: 3.82 z-score.
`GATGATCTCAGTTTCGAGACGTGCTAG`: “fitted relative affinity” 2.25 z-score.
Under “fitted relative affinity”, `TCAATTTTTTTTATTTAACTGTGCTAG` is recorded as 0.462 z-score.
`ATTATGTTTGCTTTGTTCTGGTGCTAG` — result for “fitted relative affinity”: 0.499 z-score.
`TCACCATTATATTTTAAACTGTGCTAG` — result for “fitted relative affinity”: 0.972 z-score.
`TACGGTATCGGGTTTCGGGACGTGCTA`: “fitted relative affinity” 2.92 z-score.
`ATAGGTTTCGGGTATCGGTTAGTGCTA` — result for “fitted relative affinity”: 4.75 z-score.
For `TTAGAACGGGGGTATCGATTAGTGCTA`, “fitted relative affinity” read 0.337 z-score.

Study 3 — technique: RNA Bind-n-Seq; form: RNA; sample: in vitro; concentration: 1 µM; setting: whole 134-nt RNA, ends assumed; added: 150 mM KCl; relative to: input library; reading: higher = stronger binding
Target: Ras GTPase-activating protein-binding protein 1, RRM domain (G3BP1, Homo sapiens, UniProt Q13283)
Chain of UniProt Q13283 (whole entry, looked up): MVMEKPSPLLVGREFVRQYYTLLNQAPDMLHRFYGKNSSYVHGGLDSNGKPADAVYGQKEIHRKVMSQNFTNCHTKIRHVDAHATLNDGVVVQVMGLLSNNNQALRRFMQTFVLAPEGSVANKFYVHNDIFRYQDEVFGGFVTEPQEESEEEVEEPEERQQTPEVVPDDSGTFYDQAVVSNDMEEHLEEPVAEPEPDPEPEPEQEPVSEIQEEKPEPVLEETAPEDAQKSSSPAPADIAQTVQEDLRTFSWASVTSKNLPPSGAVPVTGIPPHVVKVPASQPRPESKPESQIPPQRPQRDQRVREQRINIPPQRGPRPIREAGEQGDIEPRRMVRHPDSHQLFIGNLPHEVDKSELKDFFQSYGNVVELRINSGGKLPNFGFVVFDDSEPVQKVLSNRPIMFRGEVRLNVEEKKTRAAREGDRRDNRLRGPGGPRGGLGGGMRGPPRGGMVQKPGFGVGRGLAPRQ
`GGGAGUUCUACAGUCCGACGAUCCACAGACAACACGCACCCACACAGACACAGAGGGAAGGGGUUGGGAUGGCGACAGGGUGCACAGCAGGGCGGGGUAGGACCCCAGCCCCUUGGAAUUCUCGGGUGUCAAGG` gave a log2 enrichment of -0.0931.
`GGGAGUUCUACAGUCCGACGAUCUUUUCUCACGAUGCACCUCCCCCUGGCACUAAGAAAAAGCACUUAUCCAUUGAGCAGCUGAAUGCUCGUCGCAGGAAAGUAUGGCUCAGCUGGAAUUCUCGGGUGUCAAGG` has a log2 enrichment of -0.142.
`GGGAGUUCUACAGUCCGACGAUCACCAUGCAGGUGGGCAUCUUUGGGAAGUGGGGCAAGGGGGGGAUAGGGAGGGGGGUAACACUUGGGGAACAGGUGGUCCCAGGUCGUUUCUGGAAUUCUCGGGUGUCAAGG` has a log2 enrichment of 1.16.
`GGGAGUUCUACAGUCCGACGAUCAAAGGAAGUAAAAACAAAUGGAAAUGCUUCGGAUAGUGGCAGGGGUGGGGGUUGCUAAGGAAAGGGUGGGAUGGGAGUGGGUAAAGAGUUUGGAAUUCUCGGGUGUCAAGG` gave a log2 enrichment of 1.38.
With `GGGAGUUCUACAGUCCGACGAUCUUGUUUAGCAAUCAAGGAGACCGCGAAGGCGUACAUUCCCGGGUGUUGCUUCCAGGAGAAACCCUGAACGGAGAGCUCGUCCUCUUACCAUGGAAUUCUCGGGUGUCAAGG` the log2 enrichment was -0.0402.
`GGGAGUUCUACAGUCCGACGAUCUUUCUAGGCAAGAGGAGGAACGACGUAGAAGAGAGGAAGAGAUGAUGAUUCGUCAACGUGAGAUGGAAGAACAAAUGAGGCGCCAAAGAGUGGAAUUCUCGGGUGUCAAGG` gave a log2 enrichment of -0.2.
For `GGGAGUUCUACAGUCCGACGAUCGCAGGAAGUAAAAACAAAUGGAAAUGCUUCGGAUAGUGGAAGGGGUGGGGGUUGCUAAGGAAAGGGUGGGAUGGGAGUGGGUAAAGAGUUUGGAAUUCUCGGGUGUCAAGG`, the log2 enrichment was 0.821.
`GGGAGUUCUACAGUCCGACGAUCUAACUUUAGAGGAUGAUCUGAUGGAUAUGGCAGUGGACGUGGAUUUGGGGAUGGCUAUAAUGGGUAUGGAGGAGGACCUGGAGGUGGCAAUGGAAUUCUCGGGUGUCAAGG` has a log2 enrichment of -0.909.
`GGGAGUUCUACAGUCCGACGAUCUGGCCCUGGUGGCAUGCGGGGAGGAAGAGGUGGCCUCAUGGAUCGUGGUGGUCCCGGUGGAAUGUUCAGAGGUGGCCGUGCUGGAGACAGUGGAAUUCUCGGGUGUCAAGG` has a log2 enrichment of 0.804.

Study 4 — technique: RNA Bind-n-Seq; form: RNA; sample: in vitro; concentration: 365 nM; relative to: no-protein control; reading: higher = stronger binding
Target: RNA binding protein fox-1 homolog 2, RRM domain, GST-SBP tag (RBFOX2, Homo sapiens, UniProt O43251-10, residues 100-194)
Setting: natural RNA segment, single round, ends assumed
Target sequence (chain): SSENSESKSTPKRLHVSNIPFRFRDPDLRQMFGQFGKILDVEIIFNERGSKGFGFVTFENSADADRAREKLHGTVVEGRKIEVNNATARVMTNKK
`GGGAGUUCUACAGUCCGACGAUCCCGUCCUGCCCCUGCUGUCAGAGAUUUUUUUCUCCAGAGAGGUGCCUGUCCUGUGCUUGGAUAGUCAGUUGGUUAUUUGUGUAUGAAACAAUGUACAAAUCAAUGUUUUGUGGAAUUCUCGGGUGCCAA`: “RBNS enrichment (R)” 0.474.
`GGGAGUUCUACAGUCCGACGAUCUAGUUUGUAUCCCAGAGUAUACUGUGUUGAAAUAAGAAGAUGCAUAGCAGCUGAAUGCAUGCAUGACUUUGAGGGAAGUUAAGACUGGUUUUCUUUUCCCAUCUCUGCACUGGAAUUCUCGGGUGCCAA` — result for “RBNS enrichment (R)”: 0.588.
For `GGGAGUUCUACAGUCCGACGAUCUUGCAGUUAAUUCCUGCUGCGCUGCCCACAGUGGCUUCCUCCCUUCAGUUUGUCCCUGAGACCCCUGAGUGGCCUUUGCUUCUCCAGGGUACUGGGUUGAAGAUCCAGCCUGGAAUUCUCGGGUGCCAA`, “RBNS enrichment (R)” read 0.231.
`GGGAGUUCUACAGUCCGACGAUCUCAGACCUGGAGUGCUCCCCAACCCCCACCUAUCAAAGCUGCUUUCAAGGUCAGGGUCAGCCCCAGCUGUGGCAGAGAAGACUCAAGUCUGGUGCCUGGCCUCUGCACUGUGGAAUUCUCGGGUGCCAA`: “RBNS enrichment (R)” 0.262.
`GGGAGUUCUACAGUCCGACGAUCCUUCAUUGUUAUAUUGCAGUAAAAGUUUUAAAACAACCAUUGCAUGUUUGCUUUUGAUGUAUCCCUUUGUGAAAUUAGCACUUUUGGGGCCAAUGGAGAAAUGCAGCAUUUGGAAUUCUCGGGUGCCAA`: “RBNS enrichment (R)” 1.92.
For `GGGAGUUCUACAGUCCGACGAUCUUCCCAGCUCUCCCCAGUGUCCAGAUCCUCUCUGGAAGAGACUAUAAAAUAAACGUGGGUGCCAGGGCCUGCCUGUCUGCUUCAUUAUCCUUUGGGUGGGCAUAGGGGGAUGGAAUUCUCGGGUGCCAA`, “RBNS enrichment (R)” read 0.672.
`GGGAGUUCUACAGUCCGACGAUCCGUGACUCUGUGGGGCUUCUUUCUCCUUUUCACUUUCCCCUUUAACCCAUGUCUGACUUAGUGCUGCCUGUGUUGGUAAGAGUCAGCAAGUGCCCUUAGGAAGCCACACGUGGAAUUCUCGGGUGCCAA` — result for “RBNS enrichment (R)”: 1.08.
For `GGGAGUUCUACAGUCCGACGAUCAGUUGAAAUGAUGUUUAUUGUAGAUGGUAUUUGAACUUAUUCUUCUGGAAAUAGUUCAUCAAGUAUGUUUGUUGCUCAUUGUGAUACAUUAAAAACUGUAUCUACAUAUUUGGAAUUCUCGGGUGCCAA`, “RBNS enrichment (R)” read 1.

For quick reference, copied from above (study 4):
`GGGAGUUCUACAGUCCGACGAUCUCAGACCUGGAGUGCUCCCCAACCCCCACCUAUCAAAGCUGCUUUCAAGGUCAGGGUCAGCCCCAGCUGUGGCAGAGAAGACUCAAGUCUGGUGCCUGGCCUCUGCACUGUGGAAUUCUCGGGUGCCAA`: “RBNS enrichment (R)” 0.262.
`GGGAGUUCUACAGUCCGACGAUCCUUCAUUGUUAUAUUGCAGUAAAAGUUUUAAAACAACCAUUGCAUGUUUGCUUUUGAUGUAUCCCUUUGUGAAAUUAGCACUUUUGGGGCCAAUGGAGAAAUGCAGCAUUUGGAAUUCUCGGGUGCCAA`: “RBNS enrichment (R)” 1.92.
For `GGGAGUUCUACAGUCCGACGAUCUUCCCAGCUCUCCCCAGUGUCCAGAUCCUCUCUGGAAGAGACUAUAAAAUAAACGUGGGUGCCAGGGCCUGCCUGUCUGCUUCAUUAUCCUUUGGGUGGGCAUAGGGGGAUGGAAUUCUCGGGUGCCAA`, “RBNS enrichment (R)” read 0.672.
`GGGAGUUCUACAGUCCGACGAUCCGUGACUCUGUGGGGCUUCUUUCUCCUUUUCACUUUCCCCUUUAACCCAUGUCUGACUUAGUGCUGCCUGUGUUGGUAAGAGUCAGCAAGUGCCCUUAGGAAGCCACACGUGGAAUUCUCGGGUGCCAA` — result for “RBNS enrichment (R)”: 1.08.
